Experimental data pooled from the literature.
Protocols differ between the studies behind these lines. ± gives the spread as reported.

SMILES	host	matrix	route	dose	time	notes	tissue uptake [%ID/g]
O=C(c1ccc(F)cc1)C1CCN(C2Cc3c(cccc3OCC[18F])CC2O)CC1 (single isomer, unassigned; (-))	Sprague-Dawley rat, male	bone	intravenous	dose not given	120 min	–	0.537 ± 0.035
N=C(N)NCc1ccc(C(=O)NCCCC[C@H](NC(=O)CCCCCCC(=O)NCCCC[C@H](NC(=O)N[C@@H](CCC(=O)O)C(=O)O)C(=O)O)C(=O)O)cc1[211At]	SCID mouse, PC-3 xenografts	bone	–	–	21 h	–	0.42 ± 0.16
COc1cc(C(=O)NCCOCCOCCOCCNC(=O)c2ccc([18F])nc2)ccc1NC(=O)C1NC(CC(C)(C)C)C(C#N)(c2ccc(Cl)cc2F)C1c1cccc(Cl)c1F (stereo not drawn)	athymic male mice, HepG2 xenograft	bladder	–	–	2 h	–	2.55 ± 2.73
N=C(N)NCc1ccc(C(=O)NCCCC[C@H](NC(=O)N[C@@H](CCC(=O)O)C(=O)O)C(=O)O)cc1[211At]	SCID mouse, PC-3 xenografts	kidneys	–	–	1 h	–	103 ± 24
COc1cc2ncnc(Oc3cccc(N[11C](=O)Nc4cc(C(C)(C)C(F)(F)F)on4)c3)c2cc1OC	Balb/c nude mouse, female, A375 melanoma xenograft	blood	–	6.6 MBq	60 min	–	1.31 ± 0.02
O=C(O)CC[C@H](NC(=O)O[C@@H](CCCCNC(=O)c1ccc([18F])cc1)C(=O)O)C(=O)O	mouse, PC-3 PIP/flu xenografts	fat	–	–	60 min	–	0.15 ± 0.05
CCCC[C@H](NC(=O)CCOCCOCCNC(=O)CN1CCN(CC(=O)O)CCN(CC(=O)O)CCN(CC(=O)O)CC1)C(=O)N[C@H]1CC(=O)NCCCC[C@@H](C(N)=O)NC(=O)[C@H](Cc2c[nH]c3ccccc23)NC(=O)[C@H](CCCNC(=N)N)NC(=O)[C@@H](Cc2ccccc2)NC(=O)[C@H](Cc2c[nH]cn2)NC1=O [gallium-68 labelled]	C57BL/6J mice male B16-F10 tumour	bone	–	–	1 h post injection	unblocked	0.2 ± 0.1
C=Cc1cc(O)cc2nc(-c3ccc(O)c([76Br])c3)oc12	female C57BL/6 mouse	muscle	–	–	6 h	high dose	0.03 ± 0.01
N=C(N)NCc1ccc(C(=O)NCCCC[C@H](NC(=O)N[C@@H](CCC(=O)O)C(=O)O)C(=O)O)cc1[131I]	SCID mouse, PC-3 xenografts	spleen	–	–	4 h	–	3.5 ± 2.69
C[C@]12CC[C@H](OCC[18F])C[C@H]1CC[C@@H]1[C@@H]2CC[C@]2(C)[C@@H](c3ccc(=O)oc3)CC[C@]12O	male BALB/c nude mice, HepG2 xenograft	kidney	intravenous	7.4 MBq	120 min	–	3.21 ± 0.57
CN[C@](C)(C[18F])C(=O)O	SCID mouse SK-OV-3 xenograft	muscle	–	–	60 min post injection	–	1.3 ± 0.2
CCNc1cc2[o+]c3cc(NCC)c(C)cc3c(-c3ccccc3C(=O)OCCOCC[18F])c2cc1C	rat	blood	–	–	30 min	–	0.07 ± 0.01

For quick reference, copied from above:
SMILES	host	matrix	route	dose	time	notes	tissue uptake [%ID/g]
N=C(N)NCc1ccc(C(=O)NCCCC[C@H](NC(=O)CCCCCCC(=O)NCCCC[C@H](NC(=O)N[C@@H](CCC(=O)O)C(=O)O)C(=O)O)C(=O)O)cc1[211At]	SCID mouse, PC-3 xenografts	bone	–	–	21 h	–	0.42 ± 0.16
CN[C@](C)(C[18F])C(=O)O	SCID mouse SK-OV-3 xenograft	muscle	–	–	60 min post injection	–	1.3 ± 0.2
